{"data": "Measurements of several laboratories", "sample": "plasma", "note": "Lines come from different studies, so protocols differ. ± marks the error that the study gave."}
{"SMILES": "Cn1c(=O)oc2ccc(-c3ccc(CC(C#N)NC(=O)C4CNCCCO4)c(F)c3)cc21 (stereo not shown)", "test system": "human", "setting": "10 mg once daily, day 28, geometric mean", "AUC(0-inf)": "1600 ng·h/mL"}
{"SMILES": "CC(=O)N[C@H](CC(=O)O)C(=O)N[C@H](Cc1c[nH]c2ccccc12)C(=O)N[C@H](Cc1ccccc1)C(=O)N[C@H](CCCCN)C(=O)N[C@H](C)C(=O)N[C@H](Cc1ccccc1)C(=O)N[C@H](Cc1ccc(O)cc1)C(=O)N[C@H](CC(=O)O)C(=O)N[C@H](CCCCN)C(=O)N[C@@H](C(=O)N[C@H](C)C(=O)N[C@H](CCC(=O)O)C(=O)N[C@H](CCCCN)C(=O)N[C@H](Cc1ccccc1)C(=O)N[C@H](CCCCN)C(=O)N[C@H](CCC(=O)O)C(=O)N[C@H](C)C(=O)N[C@H](Cc1ccccc1)C(N)=O)C(C)C", "test system": "human, statin-treated high-risk CHD, female", "setting": "oral, 500 mg daily, day 13, mean, detected subjects, outlier woman excluded", "AUC(0-inf)": "304 ng·h/mL"}
{"SMILES": "[2H]C([2H])([2H])NC(=O)c1ccc(N2C(=S)N(c3ccc(C#N)c(C(F)(F)F)c3)C(=O)C2(C)C)cc1F", "test system": "healthy male humans", "setting": "oral, 80 mg, fasting, soft capsules", "AUC(0-inf)": "335000 ± 61700 ng·h/mL"}
{"SMILES": "CN1CCC[C@]1(C)/C=C/S(=O)(=O)NC(=O)Nc1c2c(cc3c1CCC3)CCC2", "test system": "human", "setting": "oral, 50 mg twice daily, day 14, multiple ascending dose", "AUC(0-inf)": "125000 ng·h/mL"}
{"SMILES": "CN[C@@H](CCOc1cccc2ccccc12)c1ccccc1", "test system": "healthy male humans", "setting": "oral, 60 mg of dapoxetine, together with: udenafil 200 mg", "AUC(0-inf)": "218 ± 146 ng·h/mL"}
{"SMILES": "CC(C)(O)c1ncc([S@](N)(=O)=NC(=O)Nc2c3c(cc4c2CCC4)CCC3)s1", "test system": "healthy human fasted", "setting": "oral, 300 mg single dose, CS formulation", "AUC(0-inf)": "63700 ng·h/mL"}
{"SMILES": "O=C(CCc1ccc(CNC(C(=O)OC2CCCC2)C2CCCCC2)cn1)NO (stereo not shown)", "test system": "human", "setting": "oral, 40 mg single dose, geometric mean", "AUC(0-inf)": "157 ng·h/mL"}
{"SMILES": "CCc1c2c(nc3ccc(O)cc13)-c1cc3c(c(=O)n1C2)COC(=O)[C@]3(O)CC", "test system": "human patients", "setting": "intravenous, 100 mg/m^2 of parent drug", "AUC(0-inf)": "792 ng·h/mL"}
{"SMILES": "Cc1[nH]nc2c1N=C(c1ccccc1Cl)c1cnc(N3CCOCC3)cc1N2", "assay": "item: total radioactivity", "test system": "human male", "setting": "oral, 10 mg", "AUC(0-inf)": "2480 h·ng eq/mL"}
{"SMILES": "O=C(CCc1ccc(CNC(C(=O)O)C2CCCCC2)cn1)NO (stereo not shown)", "test system": "healthy male humans", "setting": "oral, 20 mg, single dose, geometric mean", "AUC(0-inf)": "65.5 ng·h/mL"}
{"note": "For quick reference, copied from above:"}
{"SMILES": "CC(=O)N[C@H](CC(=O)O)C(=O)N[C@H](Cc1c[nH]c2ccccc12)C(=O)N[C@H](Cc1ccccc1)C(=O)N[C@H](CCCCN)C(=O)N[C@H](C)C(=O)N[C@H](Cc1ccccc1)C(=O)N[C@H](Cc1ccc(O)cc1)C(=O)N[C@H](CC(=O)O)C(=O)N[C@H](CCCCN)C(=O)N[C@@H](C(=O)N[C@H](C)C(=O)N[C@H](CCC(=O)O)C(=O)N[C@H](CCCCN)C(=O)N[C@H](Cc1ccccc1)C(=O)N[C@H](CCCCN)C(=O)N[C@H](CCC(=O)O)C(=O)N[C@H](C)C(=O)N[C@H](Cc1ccccc1)C(N)=O)C(C)C", "test system": "human, statin-treated high-risk CHD, female", "setting": "oral, 500 mg daily, day 13, mean, detected subjects, outlier woman excluded", "AUC(0-inf)": "304 ng·h/mL"}
